Results collected from several papers.
A part holds a random share of what one study measured.

Block 1 — technique: RNA Bind-n-Seq; form: RNA; matrix: in vitro; concentration: 365 nM; reference: no-protein control; direction: higher = stronger binding
Target: RNA binding protein fox-1 homolog 2, RRM domain, GST-SBP tag (RBFOX2, Homo sapiens, UniProt O43251-10, residues 100-194)
Setting: natural RNA segment, single round, ends assumed
Constant ends, left off below: GGGAGUUCUACAGUCCGACGAUC … UGGAAUUCUCGGGUGCCAA
Target sequence (chain): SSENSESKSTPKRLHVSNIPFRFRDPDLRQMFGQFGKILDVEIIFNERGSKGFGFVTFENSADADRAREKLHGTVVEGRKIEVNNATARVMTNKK
Strand | RBNS enrichment (R)
CCUCACCCAGAUUGAAACUCUCUUCAAGUCUAAGGACUAUGAGUUCAUGUGGAACCCUCACCUGGGCUACAUCCUCACCUGCCCAUCCAACCUGGGCACCGGGCUGCGGG | 0.324
CCAGCUCAGUCCAUUGGAAUAGUAUUAGGUUUUGGUUUUUUGUUGUAUUUCCCCCUUUCCACUGGGCCCUUCCAACACAAUGAAUGAAGGAAAUAUCAUUUAUUUAAGCA | 0.737
AACCAUUUCCUCUAUGUCCUGAGCUGGGACCUGCUGUCCUAAUGCUAAGGAUGAGGGCUGUCAAACAGAAAAUGCUGAAGACUUUACAGCUGUGGGGUCCAAAACCCUAA | 0.275
CCACAUCAGUGUGCUGAGUACCUGACCUCCAGGAUCUCCUCCACUUUGUUCUCACACCCCACUGCCCAACAGAUUCCUUUGGAUGCUGUCUGGAACAGGAAAGAGGUAUA | 0.306
UUUAACUUGGCGAGAUGUGUCUCUCAAUCCUGUGGCUUUGGUGAGAGAGUGUGCAGAGAGCAAUGAUAGCAAAUAAUGUACGAAUGUUUUUUGCAUUCAAAGGACAUCCA | 0.695
CGCCAGGAUAAAUUCUGCUUCCACCCCACAAAGGCAGUCACAGGAGAGAGUGGAGAGAGCAGUAAGGAGGCCACUGGAAGGAGCCAGACACAGAUUCUGGUUCAUUCAUU | 0.416
GCCACUGCUUGUGUCAAGGGAGGCAGGCAGAAGAGAUGAGUCCAUUCCUCAGGGACAGGUACCUGUACCUACCCCGAUUCCAAACCUACCUGCCUGGUGAGAACUCCUGC | 0.432
UCCCUGUUGUCUGGAAACAGUUGAGUUGGAGCCUGUUGCCAAUGCUGCCCUCUGCCACCCUGUGGCUGCCCUGGCUCUCUGGUCUCUAUCACCCACACAGCACCAUCUCC | 0.527

Block 2 — technique: RNA Bind-n-Seq; form: RNA; matrix: in vitro; concentration: 1 µM; setting: whole 134-nt RNA, ends assumed; added: 150 mM KCl; reference: input library; direction: higher = stronger binding
Target: Ras GTPase-activating protein-binding protein 1, C-terminal RGG region (G3BP1, Homo sapiens, UniProt Q13283)
UniProt Q13283, sequence (whole entry, looked up): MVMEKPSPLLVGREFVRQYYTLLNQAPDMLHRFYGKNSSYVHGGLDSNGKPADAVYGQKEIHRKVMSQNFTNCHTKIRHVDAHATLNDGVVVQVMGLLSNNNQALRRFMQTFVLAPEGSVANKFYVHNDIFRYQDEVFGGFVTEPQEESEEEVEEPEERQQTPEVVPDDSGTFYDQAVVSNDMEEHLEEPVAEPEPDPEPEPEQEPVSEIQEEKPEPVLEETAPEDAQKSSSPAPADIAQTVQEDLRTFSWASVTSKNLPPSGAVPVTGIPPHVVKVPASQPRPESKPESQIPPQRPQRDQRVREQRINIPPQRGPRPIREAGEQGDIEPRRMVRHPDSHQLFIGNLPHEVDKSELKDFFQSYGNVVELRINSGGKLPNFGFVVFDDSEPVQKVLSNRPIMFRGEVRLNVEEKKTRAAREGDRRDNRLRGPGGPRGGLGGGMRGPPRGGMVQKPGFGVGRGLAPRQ
Constant ends, left off below: GGGAGUUCUACAGUCCGACGAUC … UGGAAUUCUCGGGUGUCAAGG
Strand | log2 enrichment
GCAGGAAGUAAAAACAAAUGGAAAUGCUUCGGAUAGUGGCAGGGGUGGGGGUUGCUAGGGAAAGGGUGGGAUGGGAGUGGGUAAAGAGUU | 2.3
UGGGAGGUGGAUUUUGUUUAUUUUUUUAGCUCAUUUCCAGGGGUGGAAAUUUUUUUUUAAUAUGUGUCAUGAAUAAAGUUGUUUUUGAAA | 3.06
UGGCCCUGGUGGCAUGCGGGGAGGAAGAGGUGGCCUCAUGGAUCGUGGUGGUCCCGUUGGAAUGUUCAGAGGUGGCCGUGGUGGAGACAG | 2.07
UGGCUAGUCAGCAGCGGAUGUCCCCUCCAGGUUAAGAAAGCCGAACCAGAGCCGAUGCGAGAGGAGGAGAAAAUGAUUCCUCCUACGAAA | -0.813
UGGGAGGUGGAUUUUGUUUAUUUUUUUAGCUCAUUUCCAGGGGUGGGAAUUUUUUUUUAAUAUGUGUCAUGAACAAAGUUGUUUUUGAAA | 2.35
AAGUCCUGUGCUACACAUCGUAUGUACCGAAUCGGUUUUUUUGGUUUUUUUGGUGGAAAGUAUUAUGUUACGCCGUUCGGAUCUGCACUU | -1.99
UCCUGUGCUACACAUCGUAUGUACCGAAUCGGGGAAAGGGGAAAAAGGGGUUUUUGGGGAAAGUAUUAUGUUACGCCGUUCGGAUCUGCA | 2.38
AAGUCCUGUGCUACACAUCGUAUGUACCGAAUCGGGUUUGGGAAAAAGGGUUUGGGAAAGUAUUAUGUUACGCCGUUCGGAUCUGCACUU | 2.03
AAGUCCUGUGCUACACAUCGUAUGUACCGAAUCGGGGAAAGGGGAGGGGAAAGGGGAAAGUAUUAUGUUACGCCGUUCGGAUCUGCACUU | 2.58
UUCAUUCCUUGGAAGAAGCUGUACCAUCGAUACCUGAUGAAUGAAGAGCAAGCUGUCAGCAAAGUGGACGGCAUCCUGUCUAACUGUGGC | -1.88
UUAGUGAAUGUAUAGAAGGAGUAAAGGUAGAGCACAAUCCUGACCUGUCAGUUACUGUCAGCACCAAAAAAUCCCACCAGACAUGGACCU | -0.82

Block 3 — technique: protein-binding microarray; form: double-stranded DNA, one strand shown; matrix: in vitro; concentration: 0.8 µM; setting: whole 60-bp probe, no competitor; direction: higher = stronger binding; constant ends, left off below: … GTCTTGATTCGCTTGACGCTGCTG
Target: Centromere-binding protein 1, full length, N-terminal tag (CBF1, Saccharomyces cerevisiae, UniProt P17106, residues 1-351)
UniProt P17106, sequence (whole entry, looked up): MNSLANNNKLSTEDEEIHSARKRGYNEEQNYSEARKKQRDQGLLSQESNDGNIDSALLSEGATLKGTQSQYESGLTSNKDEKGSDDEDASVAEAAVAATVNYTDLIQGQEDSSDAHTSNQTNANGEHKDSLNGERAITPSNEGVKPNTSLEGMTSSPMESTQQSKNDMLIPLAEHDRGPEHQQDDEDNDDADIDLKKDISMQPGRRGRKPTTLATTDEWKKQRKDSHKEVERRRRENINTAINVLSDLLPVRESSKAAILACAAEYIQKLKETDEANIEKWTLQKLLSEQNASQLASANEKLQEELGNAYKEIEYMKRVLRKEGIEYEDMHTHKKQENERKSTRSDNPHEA
Strand | fluorescence intensity [a.u.]
CTAAACAGTCGCCCACACGTTCCCTCTTTTTTTTTC | 532
GAACGCTAAGATTTTCACGTGCTCATCAATGTGTAG | 7900
GAAAATTTTGAGAGGTTGGTGATGAAGTATAATTAG | 513
GAAAAAAAACCAGATGACGTGGATACTAAGTACTAG | 785
GAAAGCACATATATTAACCACATGAAGGCACTTTAG | 560
TGTACGAAGCTATAACATGTGGGTATAGTAGTTAGG | 559
CTACGTTTACAATATCATCATCAGTATGTGACTTTC | 553
CTACGCGTTATTTTTCGCGTGACATAATAGAAATTC | 1450
TGTACGAAGCTATAACACATGCTTATAGTAGTTAGG | 601
GAATATTTTCTCCCACACGAGGATTCTGTGGTTTAG | 545
CTAAATGTAAGTGATTGCGTGAAAGCTTAAAGTTTC | 523

Single results of other studies
Substance | target | assay | system | setting | scale | measurement | result
PhoQ, residues 284 288 289 292 302 303 NSMLDC | PhoP, residues 12 14 15 18 19 IQFRS (Escherichia coli, UniProt P23836) | Sort-seq, measured: YFP reporter | E. coli | PhoQ-PhoP variant library, added: 10 µM Mg2+ | reference: high Mg2+ state, higher = stronger signaling | fold induction | 23.1

A few entries again (block 1):
Strand | RBNS enrichment (R)
GCCACUGCUUGUGUCAAGGGAGGCAGGCAGAAGAGAUGAGUCCAUUCCUCAGGGACAGGUACCUGUACCUACCCCGAUUCCAAACCUACCUGCCUGGUGAGAACUCCUGC | 0.432
UCCCUGUUGUCUGGAAACAGUUGAGUUGGAGCCUGUUGCCAAUGCUGCCCUCUGCCACCCUGUGGCUGCCCUGGCUCUCUGGUCUCUAUCACCCACACAGCACCAUCUCC | 0.527
CGCCAGGAUAAAUUCUGCUUCCACCCCACAAAGGCAGUCACAGGAGAGAGUGGAGAGAGCAGUAAGGAGGCCACUGGAAGGAGCCAGACACAGAUUCUGGUUCAUUCAUU | 0.416
